Experimental data of several laboratories.
Every numbered part comes from another study and shows a few of its results, in no order. Substitutions count along the parent as printed.
UniProt O15294, sequence (whole entry, looked up): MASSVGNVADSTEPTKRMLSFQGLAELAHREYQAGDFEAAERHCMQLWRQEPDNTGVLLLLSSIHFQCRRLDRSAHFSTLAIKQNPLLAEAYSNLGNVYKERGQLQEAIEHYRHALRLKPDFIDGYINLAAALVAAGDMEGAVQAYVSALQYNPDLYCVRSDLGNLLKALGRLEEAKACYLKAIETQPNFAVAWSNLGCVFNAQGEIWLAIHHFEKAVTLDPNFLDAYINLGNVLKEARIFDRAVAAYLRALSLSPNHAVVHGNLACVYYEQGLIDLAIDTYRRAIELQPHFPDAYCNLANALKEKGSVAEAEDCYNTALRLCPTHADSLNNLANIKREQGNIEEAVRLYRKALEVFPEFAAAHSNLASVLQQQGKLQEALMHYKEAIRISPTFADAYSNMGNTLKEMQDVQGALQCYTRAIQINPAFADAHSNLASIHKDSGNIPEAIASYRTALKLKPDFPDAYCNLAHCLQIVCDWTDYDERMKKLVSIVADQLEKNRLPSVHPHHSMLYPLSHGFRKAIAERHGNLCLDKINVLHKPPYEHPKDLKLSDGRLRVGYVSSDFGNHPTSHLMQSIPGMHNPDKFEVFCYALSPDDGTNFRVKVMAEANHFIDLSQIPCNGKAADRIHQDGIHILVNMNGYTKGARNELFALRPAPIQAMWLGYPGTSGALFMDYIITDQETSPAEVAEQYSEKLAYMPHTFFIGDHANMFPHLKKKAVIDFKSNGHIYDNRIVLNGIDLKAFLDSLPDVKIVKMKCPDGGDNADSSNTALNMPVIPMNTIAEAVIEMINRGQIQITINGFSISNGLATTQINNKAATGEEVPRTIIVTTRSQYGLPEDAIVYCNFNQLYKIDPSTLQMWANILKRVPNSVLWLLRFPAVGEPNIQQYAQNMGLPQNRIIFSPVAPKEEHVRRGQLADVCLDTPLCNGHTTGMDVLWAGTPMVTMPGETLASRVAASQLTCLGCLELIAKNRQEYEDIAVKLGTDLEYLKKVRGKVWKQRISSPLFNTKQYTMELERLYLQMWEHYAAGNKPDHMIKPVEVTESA

Set 1 — target: CCNB2, cyclin fold, Cln2 fusion (human); technique: yeast growth competition, sequencing; medium: yeast; setting: strong parent motif; relative to: not given; reading: higher = stronger binding; starting sequence: viral docking peptide; YKVKRRLVFGADD
Variant | normalised enrichment score
D12R | 0.477
L7H | 0.192
L7E | 0.313
D12E | 1.66
K2I | 1.38
R6W | 0.0989
G10F | 0.879
A11D | 3.04
V8Y | 2.08
V8F | 1.79
V8P | 0.611
R6V | 0.678
V8A | 0.729
R5Y | 0.383
R6S | 0.348
L7D | 0.29

Set 2 — technique: aptamer microarray, sandwich; form: DNA with 2'F-ANA; medium: in vitro; tested at: 200 nM; with: Cy3 exosite-II aptamer, 400 nM; reading: higher = stronger binding; sequence: GGTTGGTGTGGTTGG
Target: Prothrombin, mature alpha-thrombin (F2, Homo sapiens, UniProt P00734)
Setting: whole 15-mer aptamer, many near background
Modification | mean fluorescence intensity [a.u.]
2'F-ANA at 2 5 6 7 9 14 | 46
2'F-ANA at 1 2 4 6 7 10 12 13 14 | 72.8
2'F-ANA at 1 3 9 13 15 | 246
2'F-ANA at 2 3 7 11 12 13 15 | 933
2'F-ANA at 1 3 7 9 10 13 15 | 79.1
2'F-ANA at 1 2 3 6 10 11 12 13 14 15 | 53.6
2'F-ANA at 1 3 5 9 11 14 15 | 45.1
2'F-ANA at 1 2 3 4 6 7 8 9 10 11 12 13 15 | 132

Set 3 — target: vanadate, free oxyanion; technique: microfluidic competitive inhibition; medium: in vitro, cell-free expressed; tested at: not given; reading: lower = stronger binding
Setting: derived from inhibition constants, unchanged parent 676 nM
Starting sequence: PafA, mature enzyme, eGFP fusion (Elizabethkingia meningoseptica, UniProt Q9KJX5); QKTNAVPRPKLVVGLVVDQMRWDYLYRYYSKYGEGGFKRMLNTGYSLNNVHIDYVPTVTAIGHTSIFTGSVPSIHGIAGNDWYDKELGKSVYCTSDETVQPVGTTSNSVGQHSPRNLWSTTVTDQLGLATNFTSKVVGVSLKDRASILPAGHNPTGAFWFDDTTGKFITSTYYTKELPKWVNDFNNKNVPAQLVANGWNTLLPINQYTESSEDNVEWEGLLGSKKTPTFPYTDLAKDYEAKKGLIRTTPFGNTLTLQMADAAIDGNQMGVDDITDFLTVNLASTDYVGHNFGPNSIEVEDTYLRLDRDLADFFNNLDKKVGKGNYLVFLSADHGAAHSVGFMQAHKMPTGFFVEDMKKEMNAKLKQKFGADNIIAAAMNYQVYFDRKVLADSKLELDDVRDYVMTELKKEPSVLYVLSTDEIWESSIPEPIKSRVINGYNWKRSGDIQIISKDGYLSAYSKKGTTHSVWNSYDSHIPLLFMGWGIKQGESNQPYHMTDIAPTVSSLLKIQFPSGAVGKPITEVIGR
Variant | oxyanion analog dissociation constant [nM]
Q192G | 716
I447G | 1040
T208G | 587

Set 4 — technique: RNA Bind-n-Seq; form: RNA; medium: in vitro; tested at: 20 nM; setting: 6-mer, flanks averaged, single round; with: 150 mM LiCl; relative to: input library; reading: higher = stronger binding
Target: TAR DNA-binding protein 43, full length, His tag (TARDBP, Homo sapiens, UniProt Q13148, residues 1-414)
Sequence | 6-mer enrichment (R)
CGAGGU | 1
UCCUGC | 0.9
GAACUA | 0.858
CCUUGG | 1.11
UGGAAC | 0.964
GGCGAU | 0.991
UACCAA | 0.839
GAGAAA | 0.924

Mixed results
Molecule | tested on | assay | system | conditions | scale | measurement | result
PSMA7 (Homo sapiens, UniProt O14818) | PSMA8 (Homo sapiens, UniProt Q8TAA3) | cross-linking MS |  | hits only |  | interaction screen | cross-linked
QIHQMRHHAPHTRVP | UDP-N-acetylglucosamine--peptide N-acetylglucosaminyltransferase 110 kDa subunit (OGT, Homo sapiens, UniProt O15294) | binding, phage display NGS | peptide |  | relative to: input library | minimum log2 enrichment ratio | 2.02
PhoQ, residues 284 288 289 292 302 303 TVTVVA | PhoP, residues 12 14 15 18 19 SGWQI (Escherichia coli, UniProt P23836) | Sort-seq, refers to: YFP reporter | E. coli | PhoQ-PhoP variant library, with: 10 µM Mg2+ | relative to: high Mg2+ state, higher = stronger signaling | fold induction | 10.5

Excerpt of the above (set 2):
Modification | mean fluorescence intensity [a.u.]
2'F-ANA at 1 2 3 6 10 11 12 13 14 15 | 53.6
2'F-ANA at 1 3 5 9 11 14 15 | 45.1
2'F-ANA at 1 2 3 4 6 7 8 9 10 11 12 13 15 | 132
